Measured values pooled from the literature.
Compare with care: the assays were run in different laboratories. Values joined by “and” are separate records of one study, mostly repeats; a detail may differ. In brackets after ≈: the same amount, converted by molar mass.

SMILES	tested on	test	test system	conditions	how to read	measurement	result
O=C(/C=C/C=C/C=C/C1CCCCC1)NC1=C[C@@](O)(/C=C/C=C/C=C/C(=O)NC2=C(O)CCC2=O)[C@@H]2O[C@@H]2C1=O	HCC2935	cell growth, CellTiter-Glo		78 h		GI50	19.1 µM
Cn1cc(-c2ccc(-c3cncc(Cl)c3N3CCC4(CCNC4=O)CC3)cc2)cn1	COLO 205	gene expression, microarray, refers to: PLK1 mRNA		concentration not given, 6 h	reference: untreated cells	log2 fold change	-2.2
NC(=O)c1cnc2[nH]ccc2c1N[C@@H]1[C@@H]2CC3C[C@H]1C[C@@](O)(C3)C2		flow cytometry	Japanese healthy men, blood	oral, 30 mg twice daily, 72 h after day 7 dose	reference: baseline	CD4+ central memory change	-0.92%
CC1(C)S[C@@H]2[C@H](NC(=O)[C@H](N)c3ccccc3)C(=O)N2[C@H]1C(=O)O	Enterococcus faecium	agar dilution	vancomycin-intermediate	25 isolates		MIC50	128 µg/mL (≈ 366 µM)
C=C[C@]1(C)C[C@@H](OC(=O)CSCCN(CC)CC)[C@]2(C)[C@H](C)CC[C@]3(CCC(=O)[C@H]32)[C@@H](C)[C@@H]1O	Mycoplasma gallisepticum		infected chickens, lung	intramuscular, 40 mg/kg		mycoplasma count	3.04 log10 CFU/mL
c1ccc(-c2n[nH]cc2-c2ccnc3ccccc23)nc1	orf19.4144 kinase Candida albicans	MIB/MS competition binding	Candida albicans cell lysate	100 nM	reference: DMSO, lower = stronger binding	log2 fold change	1.32
O=C(N1CCc2ccccc21)n1ccnn1	Arabidopsis thaliana		wild type, seedlings	3 µM, continuous red light, added: 0.3 µM karrikin KAR2		hypocotyl length	9.3 mm
CCn1cc(-c2cc(Cn3ccnc3)cc3c2CCN([C@H](c2cc(OC)ccn2)C2CC2)C3=O)c(C(F)(F)F)n1	RCM-1	cell growth, inhibitor		120 h		EC50	> 30 µM
N#Cc1ccn2c(-c3ccncc3)c(-c3ccc(F)cc3)nc2c1	orf19.6492 kinase Candida albicans	MIB/MS competition binding	Candida albicans cell lysate	1 µM	reference: DMSO, lower = stronger binding	log2 fold change	0.21
CC(C)NCC(O)c1ccc(O)c(O)c1 (stereo not drawn)			ventricular cardiomyocytes, C57BL/6 mouse	dose not given, 0.132 s		sarcomere length	1.65 µm
CC(C)n1ncc2c(C(=O)NCC3(C)CNC3)cc(C3CC3)nc21	coxsackievirus B3	CPE	Vero	1.5 µM		cell protection	86.1% and 91.8%
Cc1n[nH]c2ccc(-c3cc(OC[C@@H](N)Cc4ccccc4)cnc3-c3ccoc3)cc12	orf19.4144 kinase Candida albicans	MIB/MS competition binding	Candida albicans cell lysate	100 nM	reference: DMSO, lower = stronger binding	log2 fold change	-0.0982
